# Experimental data of several laboratories.
# A part holds a random share of what one study measured.

# Sample 1 — method: protein binding microarray; molecule type: double-stranded DNA, one strand shown; medium: in vitro; tested at: not given; reference: not given; reading: higher = stronger binding
# Target: Histone acetyltransferase KAT6A, winged helix 2, GST fusion (KAT6A, Homo sapiens, UniProt Q92794, residues 85-181)
# Setting: 8-mer, flanks averaged, mean of 2 arrays, mostly near background
# Residues (chain): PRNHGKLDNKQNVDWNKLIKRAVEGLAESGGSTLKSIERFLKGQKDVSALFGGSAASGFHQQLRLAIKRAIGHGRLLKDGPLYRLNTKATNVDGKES
Sequence,E-score
GCCCAATA,0.00613
TCTTCACA,0.0652
CGAACGTC,-0.066
ACTTCGTA,-0.0711
GGTGCGAC,0.0615
GGACCTAA,0.00583
ACGCGAGT,0.0175
AACCTTTA,-0.211
CGGCTGGA,0.156
CACGTCCG,-0.167
CGTAACAA,0.0039
GGCATCAA,0.0584
ATCCCTCG,0.00358
GATGAGCA,0.152
GTTGATGA,0.0215
TAGGAAAA,-0.006
GACATCGA,0.0302
AAATACTG,-0.0529
GTTCGCTA,0.017
CGACCCAA,0.181
AGAGAGCG,-0.00481
ACCGGTCA,-0.0697
ATTGGTAG,0.00549
GCTCTCAA,0.248
GCAGCGGA,0.121

# Sample 2 — method: universal PBM; molecule type: double-stranded DNA, one strand shown; medium: in vitro; tested at: 600 nM; reading: higher = stronger binding
# Target: Sal-like protein 4, full length isoform A (SALL4, Homo sapiens, UniProt Q9UJQ4, residues 1-1053)
# UniProt Q9UJQ4, sequence (whole entry, looked up): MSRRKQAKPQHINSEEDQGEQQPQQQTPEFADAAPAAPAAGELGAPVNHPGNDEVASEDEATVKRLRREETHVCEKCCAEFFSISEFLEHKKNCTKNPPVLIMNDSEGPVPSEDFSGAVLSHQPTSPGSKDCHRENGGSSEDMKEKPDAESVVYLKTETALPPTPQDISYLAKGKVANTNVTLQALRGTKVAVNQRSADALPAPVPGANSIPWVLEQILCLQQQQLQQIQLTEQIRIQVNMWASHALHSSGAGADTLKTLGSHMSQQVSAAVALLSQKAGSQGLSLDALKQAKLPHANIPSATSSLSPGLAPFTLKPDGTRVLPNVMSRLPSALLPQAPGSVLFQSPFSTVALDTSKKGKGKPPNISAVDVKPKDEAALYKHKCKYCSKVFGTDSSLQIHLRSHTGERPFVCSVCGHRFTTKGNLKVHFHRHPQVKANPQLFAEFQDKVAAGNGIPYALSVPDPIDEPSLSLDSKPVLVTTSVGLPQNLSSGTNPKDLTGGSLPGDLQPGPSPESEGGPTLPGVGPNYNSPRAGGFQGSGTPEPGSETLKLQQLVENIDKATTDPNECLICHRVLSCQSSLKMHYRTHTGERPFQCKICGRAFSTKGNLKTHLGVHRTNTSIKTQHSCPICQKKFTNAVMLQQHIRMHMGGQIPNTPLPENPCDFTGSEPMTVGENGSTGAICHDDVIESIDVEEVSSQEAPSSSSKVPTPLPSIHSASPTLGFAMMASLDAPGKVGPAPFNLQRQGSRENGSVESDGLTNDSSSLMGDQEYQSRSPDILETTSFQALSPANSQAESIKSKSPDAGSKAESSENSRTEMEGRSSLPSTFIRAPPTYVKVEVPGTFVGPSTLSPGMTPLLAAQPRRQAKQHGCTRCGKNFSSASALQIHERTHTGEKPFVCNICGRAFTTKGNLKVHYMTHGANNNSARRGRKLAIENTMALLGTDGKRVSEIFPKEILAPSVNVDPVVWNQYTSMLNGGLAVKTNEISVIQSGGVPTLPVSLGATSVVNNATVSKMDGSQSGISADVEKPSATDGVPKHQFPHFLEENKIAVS
# Setting: 8-mer, flanks averaged, mean of replicates
Sequence,E-score
GGAATTAA,0.269
ATGAGAGG,-0.186
GGGTCCGA,-0.362
AGGCCAGG,-0.231
TCACACAA,0.11
CTACTCGC,-0.187
AGTTAGTC,-0.0388
GCCGAGTA,-0.3
GTAAGAAC,0.0852
CAGTAGTC,-0.0838
GCTTACAA,0.232
CAAAGCTA,0.174
GACGTCGA,-0.149
TACGTGGA,0.0024
CCCTCCGG,-0.4
CCCGGCTA,-0.221
CCCCTCTA,-0.196
GAAAGTCA,0.0634
AGATACTA,0.111
CTCACTAC,0.0255
GTCTCAAA,0.0326
AGTTGTAA,0.141
CAATGTTC,-0.0321
AACAACCC,-0.0761
CACAGGAG,-0.0316

# Sample 3 — method: aptamer microarray, sandwich; molecule type: DNA with 2'F-ANA; medium: in vitro; tested at: 200 nM; added: Cy3 exosite-II aptamer, 400 nM; reading: higher = stronger binding; sequence: GGTTGGTGTGGTTGG
# Target: Prothrombin, mature alpha-thrombin (F2, Homo sapiens, UniProt P00734)
# Setting: whole 15-mer aptamer, many near background
Modification,mean fluorescence intensity
2'F-ANA at 2 4 5 6 7 8 10 11,53.6 a.u.
2'F-ANA at 1 3 4 5 6 8 9 10 11 12 14 15,53.1 a.u.
2'F-ANA at 6 7 8 9 11 12 13 15,564 a.u.
2'F-ANA at 1 2 3 7 12 13 14,90.1 a.u.
2'F-ANA at 1 2 3 4 7 9 10 11 14 15,49.1 a.u.
2'F-ANA at 3 5 6 7 9 12 13 15,132 a.u.
2'F-ANA at 1 2 4 5 6 7 11 14,48.8 a.u.
2'F-ANA at 1 3 5 6 12,106 a.u.
2'F-ANA at 1 2 3 4 5 8,134 a.u.
2'F-ANA at 1 2 4 5 7 11 15,54.6 a.u.
2'F-ANA at 2 5 8 12 15,169 a.u.
2'F-ANA at 1 7 8 9 11 12,392 a.u.
2'F-ANA at 3 5 6 7 9 10 13 14 15,58.7 a.u.
2'F-ANA at 2 6 7 9 10 12 13 14 15,83.8 a.u.
2'F-ANA at 1 2 3 4 5 6 7 8 9 13,50.2 a.u.
2'F-ANA at 1 5 7 8 11 13 14 15,44.4 a.u.
2'F-ANA at 1 3 4 6 7 11 14,65.1 a.u.
2'F-ANA at 4 8 9 13,208 a.u.
2'F-ANA at 1 2 3 5 6 12 13 14,49.8 a.u.
2'F-ANA at 2 6 7 9 10 14,103 a.u.
2'F-ANA at 3 5 7 8 10 13 14,52.8 a.u.
2'F-ANA at 1 2 3 5 6 8 11 12 13 14,67.8 a.u.
2'F-ANA at 3 4 5 9 13,61.8 a.u.
2'F-ANA at 1 2 4 5 7 8 9 15,63.7 a.u.
2'F-ANA at 1 2 6 9 11 12 13 14 15,58.4 a.u.

# Sample 4 — method: RNA Bind-n-Seq; molecule type: RNA; medium: in vitro; tested at: not given; setting: RNA with constant flanks, ends assumed; reference: input RNA pool; reading: higher = stronger binding
# Target: RING finger protein unkempt homolog, zinc fingers 1-6, GST-SBP tag (UNK, Homo sapiens, UniProt Q9C0B0, residues 30-357)
# UniProt Q9C0B0, sequence (30-357, looked up): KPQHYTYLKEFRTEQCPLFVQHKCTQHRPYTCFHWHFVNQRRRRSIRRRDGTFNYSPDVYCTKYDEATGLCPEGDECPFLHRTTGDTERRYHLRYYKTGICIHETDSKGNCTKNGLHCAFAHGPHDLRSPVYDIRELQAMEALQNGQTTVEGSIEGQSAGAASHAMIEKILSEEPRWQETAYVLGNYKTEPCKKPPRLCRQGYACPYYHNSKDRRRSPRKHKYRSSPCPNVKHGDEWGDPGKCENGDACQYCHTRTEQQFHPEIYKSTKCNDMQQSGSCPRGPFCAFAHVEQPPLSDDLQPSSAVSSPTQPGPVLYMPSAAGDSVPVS
# All sequences stand within: GGGAGUUCUACAGUCCGACGAUC … CAACAGAGGAUUGAGCAUCA
Sequence,bound/input enrichment [ratio]
UCACAAGAUCUUUCAGCAGCACCCGCUGAACAGUAUCUUCAGGAGAAGCUGCCAGAUGAAGCCGUUUUAAAAAUAUUUUCUUAUUUGCUGGAACAAGACCUUUGUAGAGCUGCUUGCGUG,0.283
CUUAGAAUAGGGAAGCUUGCUAUUUUAAAGCUCUUGUAGUGCUUUUCUUUUAAGGGAGAUGCCGUAAAAGGGAAAAUGUAGCUCUUAGUUUACACUUCAAAGAUGUGGGGGUCUUUCAGA,1.04
AGAAGGAAGCGAGCCCGGCAGAUCAAUGUUUCCACAGAUGACUCAGAGGUCAAAGCUUGCCUCCGAGCCUUGGGGGAACCCAUCACACUUUUUGGAGAGGGUCCUGCUGAAAGAAGAGAA,0.285
ACCUUUGUGGACAAGGAUUUUGUACCAUAUCAAGAUAUAAGGAUAAAUCAUACAGUGAUUUCCGAUGAUCCAUUUGAUGACCCUCCUGAUUUAUUAAUUCCUGAUCGAUCACCCGAGCCU,0.109
CGUUCUGCAUUAAGCCCCAGGUUCUCUUCUGGCUUUGAAAGGGCCCGAGUGCUCCCAGUGCCGCUUCGUCACAUCGUCACGAGCCCCUGUGGUCAUGGGCGACCUCACACCUCCCUCCCU,0.13
UGGAAGCUUUGCUGAAAACCUUUCAUUUCUUCUGGAAGCUUUGCAAAAAGGUGACCGGACCCGCAGUUGCCCAGUGAUCUUCAUACUGGAUGAAUUUGAUAUUUUUGCUCAUCAGAAAAA,0.177
UCUCGGGAACAGCUUGCGAUUGCAGAGUUUGCAAGAUCACUUCUUGUUAUUCCCAAUACACCCGCAGUUAAUGCUGCCCAGGACUCCACAGAUCUGGUUGCAAAAUUAAGAGCUUUUCAU,0.102
GCCAUGUGAUUUGCAAAUGGGGGGAAGCUACUGUGAGCGUGUGUUUUUUUAAUUUACACUACCGAGUGAUUUUUUUUUCCCCCAACGUCAAGUUUUUACCUUGCAUGUACUGGAGUAUUU,0.23
GUGAAGGCUGAGAUACCAUUGAAUGAGCAAACCACUUUAAGUAAGGAGAAUUACCUGUUCACCCGAGGCCAAACAUUUGAUGAAAAGACCCUAGCCAGAGAUUUAAUUCAGGCAGCACAG,0.318
AAAUAUCCUCAGCUAUUUCAGGUGACACUGGAUGUAGAACUACAGCCCCAUGACAAAGUAACCGACUUAACUCCACCAUGGGAACAUUACUGCACAAAAGAUGUCAAUCCCAGCAUCCUC,0.23
AAUAUGGCCAAACAGAUUGGAGCAGCUACUUAUAUCGAAUGCUCAGCUUUACAGUCGGAAAACCGCGUCAGAGACAUUUUUCACGUUGCCACCUUGGCAUGUGUAAAUAAGACAAAUAAA,0.169

# Sample 5 — method: RNA Bind-n-Seq; molecule type: RNA; medium: in vitro; tested at: 200 nM; setting: whole 134-nt RNA, ends assumed; added: 150 mM LiCl; reference: input library; reading: higher = stronger binding; library: 7-deaza-guanosine replaces G
# Target: Ras GTPase-activating protein-binding protein 1, full length (G3BP1, Homo sapiens, UniProt Q13283)
# UniProt Q13283, sequence (whole entry, looked up): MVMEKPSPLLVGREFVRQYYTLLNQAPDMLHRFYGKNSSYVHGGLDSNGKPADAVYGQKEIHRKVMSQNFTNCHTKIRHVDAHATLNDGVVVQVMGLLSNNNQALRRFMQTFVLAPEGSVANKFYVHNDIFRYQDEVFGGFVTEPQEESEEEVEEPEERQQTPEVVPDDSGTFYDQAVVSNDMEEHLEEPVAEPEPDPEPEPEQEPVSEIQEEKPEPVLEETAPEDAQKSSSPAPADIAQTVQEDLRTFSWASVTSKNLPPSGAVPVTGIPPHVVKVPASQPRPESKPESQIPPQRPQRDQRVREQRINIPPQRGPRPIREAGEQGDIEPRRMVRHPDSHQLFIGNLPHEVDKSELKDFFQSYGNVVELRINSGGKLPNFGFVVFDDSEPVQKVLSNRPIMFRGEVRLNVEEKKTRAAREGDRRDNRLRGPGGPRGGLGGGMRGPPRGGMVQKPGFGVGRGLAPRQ
# All sequences stand within: GGGAGUUCUACAGUCCGACGAUC … UGGAAUUCUCGGGUGUCAAGG
Sequence,log2 enrichment
CAAGUCCUGUGCUACACAUCGUAUGUACCGAAUCGGUUUUGGGUUUUGGUUUUGGGAAAGUAUUAUGUUACGCCGUUCGGAUCUGCACUU,-1.06
UUUGGUUAUGAACAGGAUUCGGAUUCACGUCUUGCCAACCAAUCGGGGGAGGAUCACUCCAGUGCCCAGGUCUCAGGAACCUCUGUCUUG,-0.105
ACCAUGCAGGUGGGCAUCUUUGGGAAGUGGGGCAAGGGGGGGAUAGGGAGGGGGGUAACACUUUGGGAACAGGUGGUCCCAGGUCGGUUC,0.266
CCUGUGCUACACAUCGUAUGUACCGAAUCAAACCCCCCCAAACCCCCAAAUUUUUUUAAAAAAGUAUUAUGUUACGCCGUUCGGAUCUGC,0.531
AAGUCCUGUGCUACACAUCGUAUGUACCGAAUCGGUGGUUUUUUUGGUUUUUUUGGAAAGUAUUAUGUUACGCCGUUCGGAUCUGCACUU,-0.333
GUCCUGUGCUACACAUCGUAUGUACCGAAUCGGGAAAAAGGGGAAAAAGGGAAAAAGGGAAAGUAUUAUGUUACGCCGUUCGGAUCUGCA,0.134
UGGCCCUGGUGGCAUGCGGGGAGGGAGAGGUGGCCUCAUGGAUCGUGGUGGUCCCGGUGGAAUGUUCAGAGGUGGCCGUGGUGGAGACAG,0.454
UGGCCCUGGUGGCAUGCGGGGAGGAAGAGGUGGCCUCAUGGAUCGUGGUGGUCCCGGUGGAAUGUUCAGAGGUGGCCGUGGUAGAGACAG,-0.248
GACUCUGAAGAAGAAGCUAUGGAGACUACACCAGCCAAAGGAAAGAAAGCUGCAAAAGUUGUUCCUGUGAAAGCCAAGAACGUGGCUGAG,-0.943
AGUCCUGUGCUACACAUCGUAUGUACCGAAUCGGGUUUUUGGGUUUUUGGUUUUUGGAAAGUAUUAUGUUACGCCGUUCGGAUCUGCACU,-0.988
CACAGACGACACGCACCCACACAGACACAGAGGGAAGGGGUUGGGAUGGGGACAGGGUGCACAGCAGGGCGGGGUAGGACCCCAGCCCCU,0.532
